Measurements collected from several papers.
A part holds a random share of what one study measured.

Set 1
Target: Phosphate system positive regulatory protein PHO4, full length, GST-tagged (PHO4, Saccharomyces cerevisiae, UniProt P07270, residues 1-312)
Technique: competition protein-binding microarray
Molecule type: double-stranded DNA, one strand shown
Matrix: in vitro
Concentration: 2 µM
Setting: whole 60-bp probe, lowest competitor level
Together with: Cbf1 competitor, 0.05 µM
Direction: higher = stronger binding
Measurement: fluorescence intensity
Constant ends, left off below: … GTCTTGATTCGCTTGACGCTGCTG
Residues (chain): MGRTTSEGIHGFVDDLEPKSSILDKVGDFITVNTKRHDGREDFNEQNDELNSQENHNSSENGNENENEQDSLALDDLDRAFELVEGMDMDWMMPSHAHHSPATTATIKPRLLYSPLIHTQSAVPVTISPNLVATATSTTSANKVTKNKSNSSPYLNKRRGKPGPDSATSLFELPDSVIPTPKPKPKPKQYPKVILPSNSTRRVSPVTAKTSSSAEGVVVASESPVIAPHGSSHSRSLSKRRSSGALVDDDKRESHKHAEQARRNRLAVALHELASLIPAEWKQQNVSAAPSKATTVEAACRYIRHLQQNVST
ATTGAATTGGGATATCACATGGTTATTATGGGTCCT: 7740 a.u.
ATCCCATTGGCAAATCACCTGTTCCGGCTGCTTGAT: 5040 a.u.
TACACCGCACTTTCTGGCGTGCTTTGATCTGGCTTG: 5400 a.u.
GTCGGCGGCGCAGCTCACGTGACCGCGCTCTGGGCC: 11900 a.u.
CTAACGAAGGTTTGGGAGGTGGGTGACAAGCCAAGT: 4040 a.u.
TATCTCTATCCTGCGACCGTGATGGTACCGAAAGTA: 5250 a.u.
CGGGGTTAAGTTTTTCACGTGGCTTGCTTGCAGCAG: 13400 a.u.
CGTCCTAGTGATTGTTGAGTGGGTGCCATGAGGAAG: 7550 a.u.
CTTTCCCGATCTTGGAGGGTGGGTGTAGCACATTTG: 4660 a.u.
CGATCAAGCGACCTACACGTGCTTTCAAGGCGCATT: 17000 a.u.
AGGAACTTGAGCGTAAACGTGGACGTCTGCCTGTCG: 11100 a.u.
TTGCTCCTGGATTGGTTCGTGACTCGGCACTTTACG: 4000 a.u.
AAAGCGGTAATTTTTCACGTGTATTCACATATCTAT: 13500 a.u.
ACATCTGGGCAAATCGTCGTGCGGAAAATGAATTTG: 6490 a.u.
GTTGTTGGGATCCGTCACGTGTAGGCAAAACGCGTT: 13900 a.u.
CATACCCAACCTTGTCACCTCACTTAAGATATTTGT: 3620 a.u.
TGCGCAACAACTTTTCACGTGGACTTATGTCTAGAA: 14300 a.u.
CTTTCCCGATCTTTTCACGTGATCTTAGCACATTTG: 11700 a.u.
AAAGAACTACTGTCCCACGTGGATTCGATCCCTCCC: 19700 a.u.
CTAACAACAGAGACCCACATGGACGTTGGCGCAATT: 9470 a.u.
CTTGTACTTCAATCTCACGTTTCTCCATATGAGTCT: 9890 a.u.
CTAACGAAGGTTTGGCGGGTGGGTGACAAGCCAAGT: 4300 a.u.
CTTCTGTAAATTTGGGTTGTGGGTGGACGCGCCCCG: 4680 a.u.
AAATTACTAAGTTGTCCAGTGGGTGACGCCGTATGA: 3340 a.u.
AGGCGCTCGCTCTCTTCCGTGGGTACCTGCTATATA: 4310 a.u.

Set 2
Target: Histone acetyltransferase KAT6A, winged helix 2, GST fusion (KAT6A, Homo sapiens, UniProt Q92794, residues 85-181)
Technique: protein binding microarray
Molecule type: double-stranded DNA, one strand shown
Matrix: in vitro
Concentration: not given
Setting: 8-mer, flanks averaged, mean of 2 arrays, mostly near background
Reference: not given
Direction: higher = stronger binding
Measurement: E-score
Residues (chain): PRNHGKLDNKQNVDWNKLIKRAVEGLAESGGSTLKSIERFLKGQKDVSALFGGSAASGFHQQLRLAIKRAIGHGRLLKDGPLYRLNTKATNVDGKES
ACTTATTA: -0.134
CTTCCCGA: 0.199
CACACCGA: 0.0718
CCCGGTTA: -0.115
GTTCCCTA: -0.0695
ACAGGATA: -0.08
ATATATAT: 0.179
AGTAACTG: -0.148
CCCATCCG: -0.0153
CATGGACC: -0.116
GTGATTAA: -0.159
AACTACTT: -0.131
CTACGGTA: -0.236
CGGCGGGA: 0.183
AGGTCCCG: 0.135
ACATAGTC: -0.0995

Set 3
Target: Sal-like protein 4, full length isoform B (SALL4, Homo sapiens, UniProt Q9UJQ4-2, residues 1-616)
Technique: universal PBM
Molecule type: double-stranded DNA, one strand shown
Matrix: in vitro
Concentration: not given
Setting: 8-mer, flanks averaged, mean of replicates
Direction: higher = stronger binding
Measurement: E-score
GCTGACCA: -0.281
CCTCGAAC: -0.258
AACTCAGG: -0.0647
ATCTTGAC: -0.0538
CGACTCAA: -0.0702
CGAAGTCG: -0.0882
GAAGCATA: 0.184
ACTATGGG: -0.0863
AAGGCATG: 0.0469
GAAGATCC: -0.211
CCCCAACA: -0.116
AGCGCTTC: 0.0246
AGGAGCTG: -0.208
CATCCGGG: -0.32
CATTTGAA: 0.152
AGCCTTTG: -0.145
ATGTCCCG: -0.0938
CCACTCCA: -0.0869
CCGGTCAA: -0.235
AGAAAGCC: -0.0977
ACATACTA: 0.17
GCATAAAC: 0.216
AGGGGTTA: -0.107
CACTTCGA: 0.0221

Set 4
Target: RNA binding protein fox-1 homolog 2, RRM domain, GST-SBP tag (RBFOX2, Homo sapiens, UniProt O43251-10, residues 100-194)
Technique: RNA Bind-n-Seq
Molecule type: RNA
Matrix: in vitro
Concentration: 365 nM
Setting: natural RNA segment, single round, ends assumed
Reference: no-protein control
Direction: higher = stronger binding
Measurement: RBNS enrichment (R)
Constant ends, left off below: GGGAGUUCUACAGUCCGACGAUC … UGGAAUUCUCGGGUGCCAA
GCUGAGGGGGUUGGCUGGGUCUGAGUGCCACCCCCCAGGCCACAGUGAUACCAUCCCAGUGCCAUGAGCCCACACUGCCCGCCCUCAGGCUCUCAGGUGAACGUGGCCGU: 0.5
GCUACUGUUAAAAUCCUGAUGUUUCUGUGGAAUCCUCAGUGUUUAAUCCCACUCAAUAGUAUCAUUACAGUUUUCUGUAAGAGAAAAUAUUACUUAUUUAUCCCAGUAUU: 0.555
UAAAAUUUCCCCCAUGGAAAUCACUCUCCUGUUGACUAUUUCCAGAGCUCUAGGUGUUUAGGCAGCGUGUGGUGUCUGAGAGGCCAUAGCGCCAUCAUGGGCUGAUUUUU: 0.447
GCAAAGAAAGAAACAGCCUUUAAAAGAACUUUCUAAGGGUGGUUUUUGAACCUCGCUGGACCUUGUAUGUGUGCACAUUUGCCAGAGAUUGAACAUAAUCCUCUUGGGAC: 0.501
UUACAUAACAUUAAUAUUGUAUCAGACCUCCUUAUGAAAAUGAGUAUGGAUGUGCACAGUAUGUUUGAUUUUUAUCCACAAGAAUGAAUCUGAUUCAGAAUGCUUUUCUC: 0.583
GACCUAUCCCACGUUUUUGCAUGAAUUUAUAGCAGGAAAAAUCAAGGGAUUUCCUAUGGAAGUCCUGCUUUAUUCCAGGUGAAGGGAAGGAAGUGUAUAUACUUUUGGCA: 3.15
AAAGUCGGUUAUUGGUGUCUAUUUUGUGUAUUUUCUUUUGUUAAUAAAGAUGCAAUUGAGAAUAUUUAGCCAUGAGUUGUUUGAAGUACCCCUGUUUGGCAGAGAAAUGG: 0.551
UUGUGGGCAGGGAGGGCAGAAAUAAAGUCUGCAGCCGUGCCACUCCUUGGGUCAAAAGGACACGCAGACUUUUGGGUCAUUCUUUGGACAGGUGAUCUGUAGCAAGCCUU: 0.367
UAAUCAAUCAUGUACUUUAGUUUAAUGUAUAAAGAUCCUCUAGAAAAUGAUAAUAUUGUGUAUUAAGACAUUCCUUAAUUAGGACAAAAUGGCUGCUGUAUAUUUACUAU: 0.577
GGGCUGGACUGUGAGCAGCUCUGGGUUAAUACAGGGCAGGCAAUCCUUAAACAGCUAGCAUGAAACAGUUUUGUCGUGGCCACCAGGCUUCUGUGGGAACAGUCCUUCUC: 4.25
CUCUCGACUCCUGUGGCAUGGUGCUAGUGCAUGUGACCUGUGCUGUUGUCACCCCAUGUGUUGUGUGUGACCUGUCCUCGUGUGCCCUUGGUGUCUGACUUCAGAGAGUC: 7.44
UGAGGUGCUGAAGGGCUCUUUUCAUAAGAAGCUAAGGCACUGCUGCCUGCCCCAGGUGUCCCGCUCCUCUCAGAGUCCUCCCCCUACCAGGUAGUGUGUAGCUCCAUUUC: 0.484

For quick reference, copied from above (set 1):
AAAGCGGTAATTTTTCACGTGTATTCACATATCTAT: 13500 a.u.
ACATCTGGGCAAATCGTCGTGCGGAAAATGAATTTG: 6490 a.u.
GTTGTTGGGATCCGTCACGTGTAGGCAAAACGCGTT: 13900 a.u.
CATACCCAACCTTGTCACCTCACTTAAGATATTTGT: 3620 a.u.
TGCGCAACAACTTTTCACGTGGACTTATGTCTAGAA: 14300 a.u.
